Measurements gathered from unrelated publications.
Numbers after ± are the reported error.
Polyprotein P1234 nsP2 protease domain: Polyprotein P1234, nsP2 protease domain (Chikungunya virus, UniProt Q5XXP4)
UniProt Q5XXP4, sequence (whole entry, looked up): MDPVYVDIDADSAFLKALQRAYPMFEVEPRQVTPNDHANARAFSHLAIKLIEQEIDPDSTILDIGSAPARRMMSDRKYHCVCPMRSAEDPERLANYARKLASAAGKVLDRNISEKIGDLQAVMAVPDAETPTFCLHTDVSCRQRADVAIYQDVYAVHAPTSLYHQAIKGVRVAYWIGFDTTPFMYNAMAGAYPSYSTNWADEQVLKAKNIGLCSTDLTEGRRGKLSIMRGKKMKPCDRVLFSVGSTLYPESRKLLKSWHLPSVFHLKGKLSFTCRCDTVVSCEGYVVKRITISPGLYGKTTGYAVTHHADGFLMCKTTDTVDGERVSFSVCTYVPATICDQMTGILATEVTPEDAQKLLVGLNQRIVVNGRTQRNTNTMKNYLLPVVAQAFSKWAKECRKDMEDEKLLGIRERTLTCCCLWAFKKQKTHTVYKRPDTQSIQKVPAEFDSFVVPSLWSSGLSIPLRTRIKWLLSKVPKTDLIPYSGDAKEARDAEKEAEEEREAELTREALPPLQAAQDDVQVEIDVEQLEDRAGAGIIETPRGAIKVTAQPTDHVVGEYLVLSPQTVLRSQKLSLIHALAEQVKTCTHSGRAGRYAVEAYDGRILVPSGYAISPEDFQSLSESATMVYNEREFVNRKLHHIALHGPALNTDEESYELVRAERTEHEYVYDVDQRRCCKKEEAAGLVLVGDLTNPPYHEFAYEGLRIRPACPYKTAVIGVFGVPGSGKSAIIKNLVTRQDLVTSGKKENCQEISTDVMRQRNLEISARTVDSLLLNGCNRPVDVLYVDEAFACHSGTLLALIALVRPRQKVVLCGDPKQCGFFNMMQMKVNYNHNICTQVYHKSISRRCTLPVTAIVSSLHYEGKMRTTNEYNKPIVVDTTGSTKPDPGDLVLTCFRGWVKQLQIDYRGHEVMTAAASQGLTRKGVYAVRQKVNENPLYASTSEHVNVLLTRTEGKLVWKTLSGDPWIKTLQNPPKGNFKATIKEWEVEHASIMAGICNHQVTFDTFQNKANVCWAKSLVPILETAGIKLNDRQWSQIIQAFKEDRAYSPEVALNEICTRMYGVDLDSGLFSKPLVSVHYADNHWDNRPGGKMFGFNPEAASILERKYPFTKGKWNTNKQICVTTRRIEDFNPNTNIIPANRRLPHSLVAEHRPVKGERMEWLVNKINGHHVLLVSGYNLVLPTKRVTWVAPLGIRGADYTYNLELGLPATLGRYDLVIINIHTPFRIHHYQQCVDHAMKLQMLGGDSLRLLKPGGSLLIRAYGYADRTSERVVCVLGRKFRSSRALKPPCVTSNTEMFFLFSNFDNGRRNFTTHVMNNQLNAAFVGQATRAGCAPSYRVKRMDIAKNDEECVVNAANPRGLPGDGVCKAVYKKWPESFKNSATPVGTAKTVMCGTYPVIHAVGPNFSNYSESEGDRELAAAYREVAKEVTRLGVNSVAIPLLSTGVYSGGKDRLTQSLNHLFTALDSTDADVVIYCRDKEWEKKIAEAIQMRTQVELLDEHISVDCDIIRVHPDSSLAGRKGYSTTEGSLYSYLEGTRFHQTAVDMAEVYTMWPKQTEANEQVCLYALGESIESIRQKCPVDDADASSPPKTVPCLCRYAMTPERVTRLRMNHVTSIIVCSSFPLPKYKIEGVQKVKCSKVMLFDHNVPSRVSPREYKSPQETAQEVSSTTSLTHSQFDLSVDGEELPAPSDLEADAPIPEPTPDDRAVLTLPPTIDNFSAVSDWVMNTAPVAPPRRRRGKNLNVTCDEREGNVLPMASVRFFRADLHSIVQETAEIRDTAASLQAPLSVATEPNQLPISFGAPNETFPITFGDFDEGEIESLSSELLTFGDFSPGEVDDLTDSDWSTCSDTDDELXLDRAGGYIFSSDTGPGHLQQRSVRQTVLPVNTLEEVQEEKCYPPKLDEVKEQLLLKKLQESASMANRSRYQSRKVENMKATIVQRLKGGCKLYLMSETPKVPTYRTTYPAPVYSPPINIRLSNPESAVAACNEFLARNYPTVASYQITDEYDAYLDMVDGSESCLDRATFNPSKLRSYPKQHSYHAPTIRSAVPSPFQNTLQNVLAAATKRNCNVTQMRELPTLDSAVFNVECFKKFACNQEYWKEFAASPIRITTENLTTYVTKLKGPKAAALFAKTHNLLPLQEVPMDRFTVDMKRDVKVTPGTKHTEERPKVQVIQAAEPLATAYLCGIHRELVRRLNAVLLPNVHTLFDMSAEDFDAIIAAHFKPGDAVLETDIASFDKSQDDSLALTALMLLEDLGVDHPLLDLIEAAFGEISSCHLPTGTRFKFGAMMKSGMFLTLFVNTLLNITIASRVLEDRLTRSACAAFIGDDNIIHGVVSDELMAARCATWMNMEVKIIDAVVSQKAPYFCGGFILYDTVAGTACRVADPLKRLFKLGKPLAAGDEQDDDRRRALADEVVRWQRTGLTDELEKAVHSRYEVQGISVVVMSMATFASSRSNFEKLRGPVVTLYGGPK
HLA class I histocompatibility antigen, A alpha chain allele A*11:01: HLA class I histocompatibility antigen, A alpha chain, allele A*11:01 (Homo sapiens, UniProt P04439)
UniProt P05177, sequence (whole entry, looked up): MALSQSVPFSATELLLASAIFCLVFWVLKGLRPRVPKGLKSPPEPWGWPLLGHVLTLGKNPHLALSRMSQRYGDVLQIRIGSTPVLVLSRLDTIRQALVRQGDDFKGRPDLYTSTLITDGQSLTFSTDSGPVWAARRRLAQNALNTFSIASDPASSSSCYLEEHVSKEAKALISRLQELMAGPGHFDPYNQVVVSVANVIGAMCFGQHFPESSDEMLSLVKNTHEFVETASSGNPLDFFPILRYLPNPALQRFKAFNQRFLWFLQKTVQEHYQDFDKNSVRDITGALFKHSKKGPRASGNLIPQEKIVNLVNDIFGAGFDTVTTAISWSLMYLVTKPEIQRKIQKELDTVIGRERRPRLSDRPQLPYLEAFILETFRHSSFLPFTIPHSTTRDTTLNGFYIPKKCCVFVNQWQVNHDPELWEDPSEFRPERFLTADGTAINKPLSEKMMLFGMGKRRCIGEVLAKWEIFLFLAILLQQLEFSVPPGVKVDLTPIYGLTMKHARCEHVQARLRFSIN
UniProt Q81Y92, sequence (whole entry, looked up): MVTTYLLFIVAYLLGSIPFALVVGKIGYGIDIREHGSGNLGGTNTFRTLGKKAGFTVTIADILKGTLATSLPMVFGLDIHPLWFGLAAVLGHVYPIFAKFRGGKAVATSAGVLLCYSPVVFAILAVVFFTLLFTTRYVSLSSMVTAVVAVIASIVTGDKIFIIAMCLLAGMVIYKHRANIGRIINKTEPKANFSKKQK

Compound | target | assay | test system | conditions | IC50
CC(C)[C@H](NC(=O)[C@@H]1CCCN1C(=O)[C@H](CCC(=O)O)NC(=O)[C@H](CCCCN)NC(=O)[C@H](CO)NC(=O)[C@H](CC(=O)O)NC(=O)CNC(=O)[C@@H](N)Cc1ccccc1)C(=O)N1CCC[C@H]1C(=O)N[C@@H](Cc1ccc(O)cc1)C(=O)O | HLA class I histocompatibility antigen, A alpha chain, allele A*29:02 (Homo sapiens, UniProt P04439) | biochemical |  |  | 0.564 µM
Cc1ccc2[nH]ncc2c1B(O)O | Polyprotein P1234 nsP2 protease domain | protease activity, inhibitor, FRET |  | 90 min, 30 min preincubation | > 200 µM
CC(C)(C)NC(=O)N[C@H](C(=O)N1C[C@H]2[C@@H]([C@H]1C(=O)NC(CC1CCC1)C(=O)C(N)=O)C2(C)C)C(C)(C)C (some centres unmarked) | Cathepsin B (CTSB, Homo sapiens, UniProt P07858) | inhibitor |  |  | 3.04 µM
COc1ccc(-c2cccc(Nc3cc(=O)n(O)c(=O)n3C)c2)cc1 | Resolvase OPG149 (OPG149, Vaccinia virus, UniProt Q80HV3) |  |  |  | 0.193 µM
CCC(C(=O)Nc1ccccc1C)n1cccc2nc(S(=O)(=O)Cc3ccc(F)cc3)nc1-2 (centres unmarked) | Replicase polyprotein 1ab, papain-like protease (rep, Severe acute respiratory syndrome-related coronavirus, UniProt P0C6X7) | enzyme activity |  |  | 5.35 ± 0.46 µM
O=c1c(O)c(-c2ccc(O)c(O)c2)oc2cc(O)c(O)c(O)c12 | Replicase polyprotein 1ab, main protease (rep, Severe acute respiratory syndrome-related coronavirus, UniProt P0C6X7) | enzyme activity, inhibitor |  |  | 3.87 µM
CCC(C(=O)Nc1cc(NC2COC2)ccc1C)n1cccc2nc(SCc3ccc(F)cc3)nc1-2 (centres unmarked) | Replicase polyprotein 1ab, papain-like protease (rep, Middle East respiratory syndrome-related coronavirus, UniProt K9N7C7) | enzyme activity, inhibitor |  |  | > 100 µM
C=CS(=O)(=O)CCC(=O)Nc1ccn(-c2ccc(F)cn2)n1 | Polyprotein P1234 nsP2 protease domain | protease activity, inhibitor, FRET |  | 90 min, 30 min preincubation | 9.1 ± 0.6 µM
CCC(C(=O)Nc1cc(NC2CNC2)ccc1C)n1cc(Cl)cc2nc(SCc3ccc(F)cc3)nc1-2 (centres unmarked) | Replicase polyprotein 1ab, papain-like protease (rep, Severe acute respiratory syndrome-related coronavirus, UniProt P0C6X7) | enzyme activity |  |  | 0.113 ± 0.024 µM
Cn1cnc(Cn2c(=O)[nH]/c(=N\c3cc4cn(C)nc4cc3Cl)n(Cc3cc(F)c(F)cc3F)c2=O)n1 | Cytochrome P450 1A2 (CYP1A2, Homo sapiens, UniProt P05177) | enzyme activity, inhibitor | human liver microsomes | 30 min preincubation, pH 7.4, preincubation without NADPH, with: phenacetin 90 µM | > 100 µM
O=C(C1=C(O)C(=O)N(Cc2ccco2)C1c1cccc(Cl)c1)c1ccc2c(c1)OCCO2 (centres unmarked) | Replicase polyprotein 1ab, nsp13 helicase (rep, Severe acute respiratory syndrome coronavirus 2, UniProt P0DTD1) | helicase ATPase activity, inhibitor, Kinase-Glo luminescence |  | 60 min, with: 2.5 µM ATP | 77 µM
CCC(C(=O)Nc1cc(NC2CCNC2)ccc1C)n1cc(Br)cc2nc(SCc3ccc(F)cc3)nc1-2 (centres unmarked) | Replicase polyprotein 1ab, papain-like protease (rep, Middle East respiratory syndrome-related coronavirus, UniProt K9N7C7) | enzyme activity, inhibitor |  |  | > 100 µM
CC[C@H](C)[C@H](NC(=O)[C@H](CC(N)=O)NC(=O)CNC(=O)[C@H](CC(=O)O)NC(=O)[C@H](Cc1ccc(O)cc1)NC(=O)[C@H](Cc1ccc(O)cc1)NC(=O)[C@@H](N)CCCNC(=N)N)C(=O)N[C@@H](Cc1ccc(O)cc1)C(=O)N[C@@H](CCC(=O)O)C(=O)N[C@@H](CC(C)C)C(=O)O | HLA class I histocompatibility antigen, A alpha chain, allele A*24:02 (Homo sapiens, UniProt P04439) | biochemical |  |  | 0.0096 µM
CC(C)(C)NC(=O)N[C@H]1[C@H]([C@H](O)[C@H](O)CO)OC(C(=O)O)=C[C@@H]1O | Sialidase (nanI, Clostridium perfringens, UniProt A0A0H2YQR1) | enzyme activity, inhibitor |  |  | > 500 µM
CCC(C(=O)Nc1cc(NC2CCNC2)ccc1C)n1cccc2nc(SCc3ccc(F)cc3)nc1-2 (centres unmarked) | Replicase polyprotein 1ab, papain-like protease (rep, Middle East respiratory syndrome-related coronavirus, UniProt K9N7C7) | enzyme activity, inhibitor |  |  | > 100 µM
CC(C)C[C@H](NC(=O)[C@H](CCC(=O)O)NC(=O)[C@@H](N)CO)C(=O)N1CCC[C@H]1C(=O)N[C@@H](CC(=O)O)C(=O)N[C@@H](Cc1ccccc1)C(=O)N[C@@H](C)C(=O)N[C@@H](CS)C(=O)N[C@@H](CO)C(=O)O | HLA class I histocompatibility antigen, B alpha chain, allele B*44:03 (Homo sapiens, UniProt P01889) | biochemical |  |  | 3.53 µM
O=C(N1CCC2(CC1)C[C@@H](CN1CCCCS1(=O)=O)CCO2)C1(c2ccccc2)CCCC1 | Polyprotein P1234, nsP2 (Chikungunya virus, UniProt Q8JUX6) | nsP2 RNA unwinding, inhibitor, FRET strand separation |  |  | 26 µM
CCC(CC)[C@H](NC(C)=O)[C@@H]1[C@H](O)[C@@H](C(=O)O)C[C@H]1N=C(N)N | Neuraminidase (Influenza A virus, UniProt L0MUX9) | enzyme activity, inhibitor | swine influenza A virus, N2 subtypes average |  | 0.00014 µM
Cc1ccc(C(=O)Nc2ccnc(S(N)(=O)=O)c2)c(N2CCCC(F)(F)CC2)n1 | Sodium channel Nav1.8 (Macaca mulatta, UniProt F7CEK9) | TTX-resistant sodium current, manual patch clamp | rhesus DRG neurons | with: 300 nM TTX | 0.0093 ± 0.0018 µM
C=CC(=O)N1CC(C(=O)O)OC(C)(C)C1 (centres unmarked) | Polyprotein P1234 nsP2 protease domain | protease activity, inhibitor, FRET |  | 90 min, 30 min preincubation | 140 ± 52 µM
CC(=O)N[C@H]1[C@H]([C@H](O)[C@H](O)CO)OC(O)(C(=O)O)C[C@@H]1O (some centres unmarked) | Spike glycoprotein, with ACE2 (Severe acute respiratory syndrome coronavirus 2, UniProt P0DTC2) | binding to human ACE2 |  |  | 0.0191 µM
CCC(C(=O)Nc1ccccn1)n1cccc2nc(SCc3ccc(F)cc3)nc1-2 (centres unmarked) | Replicase polyprotein 1ab, papain-like protease (rep, Severe acute respiratory syndrome-related coronavirus, UniProt P0C6X7) | enzyme activity |  |  | > 20 µM
CC[C@H](C)[C@H](NC(=O)[C@H](C)NC(=O)CNC(=O)[C@H](CO)NC(=O)[C@H](CO)NC(=O)[C@@H](NC(=O)[C@@H](N)C(C)C)[C@@H](C)O)C(=O)N[C@@H](Cc1ccc(O)cc1)C(=O)N[C@@H](CCCCN)C(=O)O | HLA class I histocompatibility antigen, A alpha chain allele A*11:01 | biochemical |  |  | 0.0031 µM
CC(C)C[C@H](NC(=O)[C@H](CCC(=O)O)NC(=O)[C@H](CCCNC(=N)N)NC(=O)[C@@H](NC(=O)[C@@H](NC(=O)CNC(=O)[C@H](CO)NC(=O)[C@H](CO)NC(=O)[C@@H](N)Cc1c[nH]cn1)C(C)C)[C@@H](C)O)C(=O)O | HLA class I histocompatibility antigen, B alpha chain (Homo sapiens, UniProt P01889) | binding, competitor |  |  | 7.76 µM
CC(C)C[C@H](NC(=O)[C@H](Cc1ccccc1)NC(=O)[C@H](CO)NC(=O)[C@H](CC(=O)O)NC(=O)[C@H](CCCCN)NC(=O)[C@H](Cc1ccccc1)NC(=O)[C@@H](NC(=O)[C@H](C)N)C(C)C)C(=O)N[C@@H](CCCNC(=N)N)C(=O)N[C@@H](CCCCN)C(=O)O | HLA class I histocompatibility antigen, A alpha chain allele A*11:01 | biochemical |  |  | 0.0061 µM
C=CS(=O)(=O)CCC(=O)Nc1ccc(-c2nncs2)cc1 | Polyprotein P1234 nsP2 protease domain | enzyme activity, inhibitor, FRET |  | 90 min, 30 min preincubation | 3.4 ± 0.2 µM
CCCCCCCC/C=C\CCCCCCCCNC(=O)CP(=O)(O)O | Glycerol-3-phosphate acyltransferase 3 (plsY3, Bacillus anthracis, UniProt Q81Y92) | inhibitor |  |  | 80 µM
CCC(CC)[C@H](NC(C)=O)[C@@H]1[C@H](O)[C@@H](C(=O)O)C[C@H]1N=C(N)N | neuraminidase (Influenza A virus, UniProt A9YLD5) |  |  |  | 0.00037 µM
CCC(CC)O[C@@H]1C=C(C(=O)O)C[C@H](N)[C@H]1NC(C)=O | Neuraminidase (Influenza A virus, UniProt I3NP73) | enzyme activity, inhibitor | swine influenza A virus, H1N1pdm09 |  | 0.00031 ± 5e-05 µM

For quick reference, copied from above:
Compound | target | assay | test system | conditions | IC50
CCC(CC)O[C@@H]1C=C(C(=O)O)C[C@H](N)[C@H]1NC(C)=O | Neuraminidase (Influenza A virus, UniProt I3NP73) | enzyme activity, inhibitor | swine influenza A virus, H1N1pdm09 |  | 0.00031 ± 5e-05 µM
CCC(CC)[C@H](NC(C)=O)[C@@H]1[C@H](O)[C@@H](C(=O)O)C[C@H]1N=C(N)N | neuraminidase (Influenza A virus, UniProt A9YLD5) |  |  |  | 0.00037 µM
CC(C)C[C@H](NC(=O)[C@H](Cc1ccccc1)NC(=O)[C@H](CO)NC(=O)[C@H](CC(=O)O)NC(=O)[C@H](CCCCN)NC(=O)[C@H](Cc1ccccc1)NC(=O)[C@@H](NC(=O)[C@H](C)N)C(C)C)C(=O)N[C@@H](CCCNC(=N)N)C(=O)N[C@@H](CCCCN)C(=O)O | HLA class I histocompatibility antigen, A alpha chain allele A*11:01 | biochemical |  |  | 0.0061 µM
